Measured values from different studies.
Numbered parts are unrelated; each lists some results of a single study. Positions count from the first letter of the parent shown.

Block 1 — technique: RNA Bind-n-Seq; molecule type: RNA; matrix: in vitro; tested at: 365 nM; baseline: no-protein control; direction: higher = stronger binding
Target: RNA binding protein fox-1 homolog 2, RRM domain, GST-SBP tag (RBFOX2, Homo sapiens, UniProt O43251-10, residues 100-194)
Notes: natural RNA segment, single round, ends assumed
Constant ends, left off below: GGGAGUUCUACAGUCCGACGAUC … UGGAAUUCUCGGGUGCCAA
Target sequence (chain): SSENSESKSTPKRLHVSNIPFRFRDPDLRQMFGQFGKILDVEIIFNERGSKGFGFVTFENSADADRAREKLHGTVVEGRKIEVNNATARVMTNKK
Oligonucleotide	RBNS enrichment (R)
UAGAAACCAAAUGGUGUAAAUAUUUUAUUUGAUAAAGAUAGUUGAUGGUUUAUUUUAAAAGAUGCACUUUGAGUUGCAAUAUGUUAUUUUUAUAUGGGCCAAAAACAAAA	0.593
CGUUGAACUUGGCUGUUGUUACAGGAAAAUGAUGGCAUCAACAGGUCUUUGAUGGUGGUGGAGCAUAUCAGAACACAUAAGGAACUGUAGCCCAGAUUUAUUUCAAUUCA	0.424
AUCAUGCAAAAACCAUUUUGUUUCCAGGGUAACAAGUAACUAAGUGCAUGCACAACUUGUUUUCCCUUGUAACAUUCAUGAUCUCAUUUACAACUCUGAUUUUAAAACAA	1.33
ACCAGUGAUGGAGAGCCCACCCAAGUCCGACGUCCUGAGACAAUGUCAAACCAUGAUGUUGUCAUUGAGCAGUAGCUCAUGAGCAAUGGCAUGUCUUUCUCCCCUGACCC	0.209
GCCUGCUCUUUUUGAAGCAGCUGAUUGGAGAGUAAAGAUUUUCAUUCAAUAAAGCUAAACCUCAGGGUCCAGUUUCUUGUGUUCUUGAGAAGCCAGGCAACUGCUUGGAG	0.2
ACACAGCAGGUGUGAGAUGUCAUCUUGGAAGACAGGCCUUGCAGAAAUAGGCCUACAUCCAAAAUAUUAUCUUGUGACUCCAUGAACCAUUCAUUAACCCUUUGUAUCUU	0.561
CAAUAGUGUAGCUUUUCUACGGGUGACCAGCAGGAGGCUAGACAGGUGGGGGGGUAGGGGAAAGCCACUUUUCCCGGAGGCUUCUCCUCCUCUGCCUGGCCUGUUCCUGU	0.48
CAUACUUGCAAAGGAGAGGAGAGAGUGCUAAAGCCUGGUUCUGACUGAGGGCUCUGCGUCCCUGCAGUAAACAGGUGAGAUCUGCAGCAGGGCAGGGCUGCUUUAACAGG	0.7

Block 2 — technique: protein-binding microarray; molecule type: double-stranded DNA, one strand shown; matrix: in vitro; tested at: 2540 nM top; notes: 60-bp whole probe; together with: salmon DNA 0.4 mg/ml; baseline: random background probes; direction: higher = stronger binding; constant ends, left off below: GCCTAGCAC … GTCTTGATTCGCTTGACGCTGCTG
Target: Interferon regulatory factor 3, full length, phosphomimetic (IRF3, Homo sapiens, UniProt Q14653, residues 1-427, S386D/S396D/S398D/S402D/T404D/S405D)
Target sequence (chain): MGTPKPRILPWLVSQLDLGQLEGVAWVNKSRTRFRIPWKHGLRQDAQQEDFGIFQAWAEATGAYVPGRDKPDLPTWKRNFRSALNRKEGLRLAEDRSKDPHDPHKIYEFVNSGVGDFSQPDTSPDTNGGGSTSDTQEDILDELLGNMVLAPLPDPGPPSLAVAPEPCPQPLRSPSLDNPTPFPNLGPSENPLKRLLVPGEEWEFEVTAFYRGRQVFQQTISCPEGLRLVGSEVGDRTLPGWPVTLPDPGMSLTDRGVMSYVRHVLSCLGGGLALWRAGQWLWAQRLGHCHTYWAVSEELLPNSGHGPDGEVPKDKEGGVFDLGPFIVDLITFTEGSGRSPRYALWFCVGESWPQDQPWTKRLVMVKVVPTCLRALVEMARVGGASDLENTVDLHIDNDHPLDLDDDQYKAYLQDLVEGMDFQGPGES
Oligonucleotide	fitted relative affinity [z-score]
GACGGATTCCTTTTCCTGACGTGCTAG	5.61
TTAGGTTGCCTACTGCTTTAGTGCTAG	1.81
TCAGTGATCAGTCTGATACTGTGCTAG	-0.0972
TTCGGTTTCGGGTATCGGTTAGTGCTA	5.38
TCAATTCTCGGGACTCACACTGTGCTA	0.557
TCAAGTTTCTCCTTTCGACTGTGCTAG	2.04
GACGGTTTCGACTCTCGGGACGTGCTA	4.39
GACGGTATCGGACTGGAGACGTGCTAG	1.47
GACGGACTTGGTCTCGGGACGTGCTAG	-0.416
TGCTCTCCGGGGTCTGTGAGGGTGCTA	-0.676
TTAGATATCGGGTTTCGATCAGTGCTA	1.36
TTAGATATCAGACTCGATTAGTGCTAG	0.911
GACGAACTGAGTATCGATACGTGCTAG	0.704
TTAGGTATCGACTAACGGTTAGTGCTA	0.155

Block 3 — technique: aptamer microarray, sandwich; molecule type: DNA with 2'F-ANA; matrix: in vitro; tested at: 200 nM; together with: Cy3 exosite-II aptamer, 400 nM; direction: higher = stronger binding; oligonucleotide: GGTTGGTGTGGTTGG
Target: Prothrombin, mature alpha-thrombin (F2, Homo sapiens, UniProt P00734)
Notes: whole 15-mer aptamer, many near background
Modification	mean fluorescence intensity
2'F-ANA at 4 6 7 8 10 11 12 15	93.1 a.u.
2'F-ANA at 1 2 6 9 10 11 13 14	46.1 a.u.
2'F-ANA at 2 3 4 5 7 10 11 12 13 14 15	47.6 a.u.
2'F-ANA at 3 4 7 10 14	265 a.u.
2'F-ANA at 1 2 6 7 9 11	109 a.u.
2'F-ANA at 1 3 4 9 10 12 13	71.7 a.u.
2'F-ANA at 6 7 8 10 11 12 13 15	170 a.u.
2'F-ANA at 2 3 5 6 7 8 9 10 12 15	59.8 a.u.
2'F-ANA at 1 2 5 11 12 15	81.8 a.u.
2'F-ANA at 4 6 7 10 12 13	97 a.u.
2'F-ANA at 1 2 8 11 12 13	320 a.u.
2'F-ANA at 4 6 11 13 15	155 a.u.
2'F-ANA at 1 3 4 5 6 7 13	48.3 a.u.
2'F-ANA at 2 3 4 5 13 14 15	51.7 a.u.
2'F-ANA at 2 3 5 6 10 12 15	57.2 a.u.
2'F-ANA at 4 7 8 9 10 12 13 14 15	84.9 a.u.
2'F-ANA at 2 4 5 11 12 14 15	44.2 a.u.
2'F-ANA at 1 5 6 7 8 11 12 15	89.9 a.u.
2'F-ANA at 3 4 8 9 10 11 14 15	177 a.u.
2'F-ANA at 2 5 9 10 11 12 13 14	51.9 a.u.
2'F-ANA at 2 6 8 10 14 15	75.7 a.u.
2'F-ANA at 3 4 6 7 10 11 14	169 a.u.

Other studies, line by line — CCNB1: CCNB1, cyclin fold, Cln2 fusion (human)
P1: SGO1 docking peptide (human); PLAKRALKYTDEK
Substance	target or system	test	test system	conditions	how to read	endpoint	value
P1 L7A	CCNB1	yeast growth competition, sequencing	yeast	weak parent motif	baseline: not given, higher = stronger binding	normalised enrichment score	0.322
GFGFLLFICKLTF	Saccharomyces cerevisiae	binding, competitive growth deep sequencing	peptide, cyclin D3-Cln2 fusion strain	concentration not given, peptide library 2	direction not given	growth enrichment score	-0.0258
P1 T10A	CCNB1	yeast growth competition, sequencing	yeast	weak parent motif	baseline: not given, higher = stronger binding	normalised enrichment score	0.35
